Measurements pooled from the literature.
Parts stem from different laboratories: compare values within a part only. Changes are numbered by the printed parent chain.

Study 1
Target: UBE2W UBC core domain (UniProt Q96B02)
Technique: yeast two-hybrid
Sample: yeast
Notes: mostly zero background
Relative to: not given
Reading: higher = stronger interaction
Endpoint: lacZ reporter activity
B1: RNF25 RING domain (UniProt Q96BH1); chain LTDNNIPHGQCVICLYGFQEKEAFTKTPCYHYFHCHCLARYIQHMEQELKAQGQEQEQERQHATTKQKAVGVQCPVCREPLVYDLASL
B2: TRIM69 RING domain (UniProt Q86WT6); chain VIQDITMELHCPLCNDWFRDPLMLSCGHNFCEACIQDFWRLQAKETFCPECKMLCQYNNCTF
B3: RC3H2 RING domain (UniProt Q9HBD1); chain QAAQWTEFLSCPICYNEFDENVHKPISLGCSHTVCKTCLNKLHRKACPFDQTAINTDIDVL
Construct (chain): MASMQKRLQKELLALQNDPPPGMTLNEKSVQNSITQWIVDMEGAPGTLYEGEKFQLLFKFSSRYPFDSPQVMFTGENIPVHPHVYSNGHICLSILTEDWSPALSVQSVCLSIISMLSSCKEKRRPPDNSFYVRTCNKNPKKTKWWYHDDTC
B1 (RNF25 RING domain): 0
QHHELTSLFECPVCFDYVLPPILQCQAGHLVCNQCRQKLSCCPTCRGALTPSIRNL (SIAH2 RING domain (UniProt O43255)): 0
DAIPSLSECQCGICMEILVEPVTLPCNHTLCKPCFQSTVEKASLCCPFCRRRVSSWTRYH (RNF168 RING domain (UniProt Q8IYW5)): 0
B2 (TRIM69 RING domain): 0
VTLSLTLPITCHICLGKVRQPVICINNHVFCSICIDLWLKNNSQCPACRVPITPENPCK (OBI1 RING domain (UniProt Q5W0B1)): 0
B3 (RC3H2 RING domain): 0

Study 2
Target: Protein max, full length (MAX, Homo sapiens, UniProt P61244-2, residues 1-151)
Technique: protein-binding microarray
Molecule type: double-stranded DNA, one strand shown
Sample: in vitro
Concentration: not given
Notes: k-mer, scored over probes, only values ≥0.25
Reading: higher = stronger binding
Endpoint: E-score
TGCGCGCA: 0.299
CATGTCTC: 0.289
AGCATGAG: 0.368
GCGCGTGA: 0.416
GTGTCGTA: 0.273
CATGTGGG: 0.477
CACGCCTG: 0.379
CGTGCCGA: 0.313

Study 3
Target: CCNE1, cyclin fold, Cln2 fusion (human)
Technique: yeast growth competition, sequencing
Sample: yeast
Notes: strong parent motif
Relative to: not given
Reading: higher = stronger binding
Endpoint: normalised enrichment score
Starting sequence: viral docking peptide; KGVKRKLFAEDSS; partner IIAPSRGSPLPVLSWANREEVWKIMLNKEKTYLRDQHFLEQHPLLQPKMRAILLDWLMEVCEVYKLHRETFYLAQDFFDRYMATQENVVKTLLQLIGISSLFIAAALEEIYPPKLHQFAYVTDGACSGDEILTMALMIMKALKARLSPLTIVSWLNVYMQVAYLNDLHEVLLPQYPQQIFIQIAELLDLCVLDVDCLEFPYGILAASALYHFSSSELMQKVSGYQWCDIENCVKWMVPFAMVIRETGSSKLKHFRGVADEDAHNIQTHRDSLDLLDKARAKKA
KRVKRKLFAEDSS [G2R]: 6.81
KGVKRKLFAEDLS [S12L]: 7.61
KGVKRKLFMEDSS [A9M]: 7.63
KGVKRKLFAEDMS [S12M]: 7.22
KGVKRKLWAEDSS [F8W]: 6.66
KGVKRKSFAEDSS [L7S]: 0.103
KGVKRKLFPEDSS [A9P]: 7.26
KGVMRKLFAEDSS [K4M]: 6.04
KGQKRKLFAEDSS [V3Q]: 0.537
KGVKRKFFAEDSS [L7F]: 0.511
KGVKRKLFAPDSS [E10P]: 7.22
KGVKRWLFAEDSS [K6W]: 5.16
KGVKRKLVAEDSS [F8V]: 0.535

Study 4
Target: HLA class I histocompatibility antigen, A alpha chain, allele A*80:01 (Homo sapiens, UniProt P04439)
Read-out: peptide-MHC binding
Molecule type: peptide
Concentration: concentration not given
Endpoint: binding
CLSPVVAGL: inactive
GPSPSHKSV: inactive
ETIEILRNY: active
LYVAGVPEL: inactive
LFPELECFF: inactive
GTIIVHPNK: inactive

Repeated from above (study 1):
B1 (RNF25 RING domain): 0
DAIPSLSECQCGICMEILVEPVTLPCNHTLCKPCFQSTVEKASLCCPFCRRRVSSWTRYH (RNF168 RING domain (UniProt Q8IYW5)): 0
QHHELTSLFECPVCFDYVLPPILQCQAGHLVCNQCRQKLSCCPTCRGALTPSIRNL (SIAH2 RING domain (UniProt O43255)): 0
B2 (TRIM69 RING domain): 0
